{"data": "Measured values from different studies", "note": "Every numbered part comes from another study and shows a few of its results, in no order. Substitutions count along the parent as printed."}
{"data": "Set 1", "Molecule": "PhoQ, residues 284 288 289 292 302 303 SIHLQL", "method": "Sort-seq", "measured": "YFP reporter", "sample": "E. coli", "notes": "PhoQ-PhoP variant library", "together with": "10 µM Mg2+", "reference": "high Mg2+ state", "reading": "higher = stronger signaling"}
{"target": "PhoP, residues 12 14 15 18 19 HHYTI (Escherichia coli, UniProt P23836)", "fold induction": 13.4}
{"target": "PhoP, residues 12 14 15 18 19 AYFRS (Escherichia coli, UniProt P23836)", "fold induction": 12.8}
{"target": "PhoP, residues 12 14 15 18 19 SFCSL (Escherichia coli, UniProt P23836)", "fold induction": 6.97}
{"data": "Set 2", "target": "CCNE1, cyclin fold, Cln2 fusion (human)", "method": "yeast growth competition, sequencing", "sample": "yeast", "notes": "strong parent motif", "reference": "not given", "reading": "higher = stronger binding", "starting sequence": "RBL2 docking peptide (human); STTRRRLFVENDS; partner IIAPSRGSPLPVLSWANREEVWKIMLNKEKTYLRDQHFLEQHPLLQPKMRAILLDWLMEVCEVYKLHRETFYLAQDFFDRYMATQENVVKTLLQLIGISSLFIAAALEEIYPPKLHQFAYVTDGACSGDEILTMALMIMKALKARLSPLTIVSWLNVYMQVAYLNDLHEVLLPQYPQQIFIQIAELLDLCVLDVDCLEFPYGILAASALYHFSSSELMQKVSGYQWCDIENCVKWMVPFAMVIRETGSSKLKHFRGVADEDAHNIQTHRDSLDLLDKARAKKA"}
{"Substitution": "R5N", "normalised enrichment score": 0.381}
{"Substitution": "R6C", "normalised enrichment score": 2.65}
{"Substitution": "V9T", "normalised enrichment score": 7.07}
{"Substitution": "R5F", "normalised enrichment score": 0.376}
{"Substitution": "V9R", "normalised enrichment score": 4.13}
{"Substitution": "N11R", "normalised enrichment score": 4.37}
{"Substitution": "N11A", "normalised enrichment score": 5.14}
{"Substitution": "R5K F8L", "normalised enrichment score": -0.128}
{"Substitution": "N11S", "normalised enrichment score": 5.88}
{"data": "Set 3", "target": "RNA binding protein fox-1 homolog 2, RRM domain, GST-SBP tag (RBFOX2, Homo sapiens, UniProt O43251-10, residues 100-194)", "method": "RNA Bind-n-Seq", "form": "RNA", "sample": "in vitro", "tested at": "365 nM", "notes": "natural RNA segment, single round, ends assumed", "reference": "no-protein control", "reading": "higher = stronger binding", "Target sequence (chain)": "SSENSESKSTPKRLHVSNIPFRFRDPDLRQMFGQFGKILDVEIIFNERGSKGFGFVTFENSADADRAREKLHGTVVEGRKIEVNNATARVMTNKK"}
{"Oligonucleotide": "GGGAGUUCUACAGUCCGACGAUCCUACCACCCCUAGUAAGCAGGGUAGGAGCAACAGAUUCAAGAUGAGAGAAGUAUGUGUUUGUUUUUAACAUGAUGCUAGUUAGAGAACAGUCUUAUCAGCAAAUUACUCUUGGAAUUCUCGGGUGCCAA", "RBNS enrichment (R)": 0.57}
{"Oligonucleotide": "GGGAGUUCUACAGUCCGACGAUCAUUCCGGGACCUGGCCCUGGGGGUGGACAAAGUCCAAGAGAGGGUGGUGAAAGGAAAAUUGCUGGAGGAGGAAGUGCAGGCUCAGACCCAGUCAGUACAAAUGGAAAAGGUGGAAUUCUCGGGUGCCAA", "RBNS enrichment (R)": 0.538}
{"Oligonucleotide": "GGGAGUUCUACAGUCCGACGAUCUAACUACUUCUCAUGAACACUACCCAAGGAGGAAGCCUGCACCUGGGAAGUGUGCAGUGUGAGCUCUGCCCUCCUGUUAAGUUCUCCAGCUCUAGACAUGUCUCUUGGUGUGGAAUUCUCGGGUGCCAA", "RBNS enrichment (R)": 1.23}
{"Oligonucleotide": "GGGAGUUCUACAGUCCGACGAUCUGUCACUCAGGAAUGAUUUGGAAUGUUAGGGAUAGUCACCCACCACCACAGUGCUAGGUUUCAGUGACCAGGAGCGAUGUGGAGCUGAGUCUAGUGGGAGUCCAGAGGUAUGGAAUUCUCGGGUGCCAA", "RBNS enrichment (R)": 1.91}
{"Oligonucleotide": "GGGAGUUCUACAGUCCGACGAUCACCAAUGGAUGAGGGGGGUGGCCACAGGAGAUGGGGAGAGGAGUCUGAACUAAACCCCUGGCUUUUGUGCACACUGCAUACGUUUCAGAACUCCUGGAUGGUAACCAUCUUGGAAUUCUCGGGUGCCAA", "RBNS enrichment (R)": 1.02}
{"Oligonucleotide": "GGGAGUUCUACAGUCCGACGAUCGCUGUGACACUCUGGAUGUCUUGGUGUGUGUAGACACACAUUGCAGACUCUUAACGCAGGAAGGACUUCAAACUUCUGCUGAGACCUUGGGGUCAAGGAACAUUUCAUUGUGGAAUUCUCGGGUGCCAA", "RBNS enrichment (R)": 0.36}
{"Oligonucleotide": "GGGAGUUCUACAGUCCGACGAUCCACAGGAACAGCCCUCUUAAUCUGAGCCUGCCUAUGCUGGCAUUCUUUGCCAGUAAUGGGACACUUCUUUUGGCAUUUCUUGCAGAGUGCUUUUGAGGGACUUGGCUGUAUGGAAUUCUCGGGUGCCAA", "RBNS enrichment (R)": 0.269}
{"Oligonucleotide": "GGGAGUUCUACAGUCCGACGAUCCGGCCACCUUCCCUCCCAUCUUUGGCAGACAGAAGUCUCAGCUCUCACUAGAGGGAAGACCUGGGCAUCCUGCUGGCUCCUCUCUCCGUGGGGCCUGGAGUCUGGUGCUGUGGAAUUCUCGGGUGCCAA", "RBNS enrichment (R)": 0.22}
{"data": "Set 4", "target": "RING finger protein unkempt homolog, zinc fingers 1-6, GST-SBP tag (UNK, Homo sapiens, UniProt Q9C0B0, residues 30-357)", "method": "RNA Bind-n-Seq", "form": "RNA", "sample": "in vitro", "tested at": "not given", "notes": "RNA with constant flanks, human and mouse sites, ends assumed", "reference": "input RNA pool", "reading": "higher = stronger binding", "UniProt Q9C0B0, sequence (30-357, looked up)": "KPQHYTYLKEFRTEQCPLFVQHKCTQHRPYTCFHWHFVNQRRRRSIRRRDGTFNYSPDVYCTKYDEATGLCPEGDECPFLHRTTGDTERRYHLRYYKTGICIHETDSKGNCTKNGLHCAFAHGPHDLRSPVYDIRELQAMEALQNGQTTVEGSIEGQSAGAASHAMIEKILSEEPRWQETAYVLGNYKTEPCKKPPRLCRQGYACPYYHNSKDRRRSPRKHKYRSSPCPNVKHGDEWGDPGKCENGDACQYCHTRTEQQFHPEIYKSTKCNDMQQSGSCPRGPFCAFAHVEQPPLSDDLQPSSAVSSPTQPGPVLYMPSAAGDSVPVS"}
{"Oligonucleotide": "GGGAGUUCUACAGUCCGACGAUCUGUUUCCCAAUGUUAUGCUCGCUUGCCUAGCUUUAUGAAUUGCUUUGGUUUCUGUUUUUGCAUACUCUCAAUUUCUUUGAACCCCACCCCCACCCCACCCCCACUUACAUGCAUGCGAUCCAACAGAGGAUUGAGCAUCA", "bound/input enrichment [ratio]": 0.546}
{"Oligonucleotide": "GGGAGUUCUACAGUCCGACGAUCCUGGUUUCCUGGAUUGGAUUGAUCAGUUUGAUUUGUUCUGUAUUUGGCCAAACAGAUAAAAAUAGAUGUUUAAAAGCAAAUGCCAAAUCUUGCGGAGAAUGUAUACAAGCAGGGCCAAAUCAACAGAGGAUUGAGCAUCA", "bound/input enrichment [ratio]": 0.342}
{"Oligonucleotide": "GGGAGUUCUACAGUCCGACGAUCGAAAUGAAAUACUACAUAGUGCAUUUGAAACGCCACUUUAUGUUUCGAAACCAUCUCUGUUUAGUUUUUGAAAUGCUGUCCUACAACCUCUAUGACUUGCUGAGAAACACCAAUUUCCGACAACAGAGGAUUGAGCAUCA", "bound/input enrichment [ratio]": 0.441}
{"Oligonucleotide": "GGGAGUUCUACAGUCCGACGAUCGAAUUUAAUUGGUGAUGCCUUUGUGUCUAGAAGGCACACAUCCCAGAGAGCUCUGGUGUGACGUGAUGGGGACUUGUGGCUAGAGAAGAUCUUCAAUGGCCUUAAGCUCUGGGUCUUGCUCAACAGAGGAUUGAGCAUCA", "bound/input enrichment [ratio]": 0.277}
{"Oligonucleotide": "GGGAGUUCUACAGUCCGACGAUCGUAACGCUGCUGCCCGGAGCCGCGUUGGAGGCCUCCCUUCCCAUUAAGUGCCUCUUUGCAUAGCACCGGCCCCACCCCCACGCUCACUGGUACUACUACAGAGCAGCGCGCCAUGGCGGGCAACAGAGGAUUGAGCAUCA", "bound/input enrichment [ratio]": 0.274}
{"Oligonucleotide": "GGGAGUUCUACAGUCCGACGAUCAAGUAGCAUAUGACUGGAAACUAUAUUCAGUGCACUUUCUCCAAAAGACUACCCAGAAAAAUAGACUUAUUUUCAAAUACCAGUUAUCAAGAUAUAUUAAAUAGCUGUAUUGUUUAGAAUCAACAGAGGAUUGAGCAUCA", "bound/input enrichment [ratio]": 13.7}
{"Oligonucleotide": "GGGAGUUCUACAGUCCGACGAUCGCUGCACUCCGUAACUCAACAUGGCAUGCCUUUCUCUCCGUAAACUAUUUAGUGAGAUUUUUAGGGACUAUUUUUCAGUAUCUCUGUACCUGUUAAAGGGGGUGCUUUUCGAUCUAAAAACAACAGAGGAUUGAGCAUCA", "bound/input enrichment [ratio]": 0.593}
{"Oligonucleotide": "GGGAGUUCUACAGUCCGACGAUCGAGCCCAGCCGGCAGUUUGUAAAGGACUCAAUUCGGCUGGUUAAAAGAUGCACCAAACCCGACAGAAAAGAAUUCCAGAAGAUUGCCAUGGCUACAGCUAUAGGAUUUGCUAUCAUGGGACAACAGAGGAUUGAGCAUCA", "bound/input enrichment [ratio]": 0.161}
{"note": "A few entries again (set 2):"}
{"Substitution": "R6C", "normalised enrichment score": 2.65}
{"Substitution": "V9T", "normalised enrichment score": 7.07}
{"Substitution": "R5K F8L", "normalised enrichment score": -0.128}
